Experimental data gathered from unrelated publications.
Parts stem from different laboratories: compare values within a part only. Values joined by “and” are separate records of one study, mostly repeats; a detail may differ.
Sequence of UniProt P08908 (whole entry, looked up): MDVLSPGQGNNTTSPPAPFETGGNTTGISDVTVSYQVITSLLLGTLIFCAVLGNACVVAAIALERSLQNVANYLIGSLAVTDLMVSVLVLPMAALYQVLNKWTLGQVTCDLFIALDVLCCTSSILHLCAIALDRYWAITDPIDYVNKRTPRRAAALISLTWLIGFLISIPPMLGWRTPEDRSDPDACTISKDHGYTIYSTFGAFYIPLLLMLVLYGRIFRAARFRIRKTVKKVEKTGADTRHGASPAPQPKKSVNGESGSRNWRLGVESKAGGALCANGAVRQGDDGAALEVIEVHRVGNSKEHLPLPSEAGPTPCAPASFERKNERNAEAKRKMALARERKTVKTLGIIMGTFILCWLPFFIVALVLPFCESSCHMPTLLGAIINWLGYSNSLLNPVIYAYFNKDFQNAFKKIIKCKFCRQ
Sequence of UniProt Q01959 (whole entry, looked up): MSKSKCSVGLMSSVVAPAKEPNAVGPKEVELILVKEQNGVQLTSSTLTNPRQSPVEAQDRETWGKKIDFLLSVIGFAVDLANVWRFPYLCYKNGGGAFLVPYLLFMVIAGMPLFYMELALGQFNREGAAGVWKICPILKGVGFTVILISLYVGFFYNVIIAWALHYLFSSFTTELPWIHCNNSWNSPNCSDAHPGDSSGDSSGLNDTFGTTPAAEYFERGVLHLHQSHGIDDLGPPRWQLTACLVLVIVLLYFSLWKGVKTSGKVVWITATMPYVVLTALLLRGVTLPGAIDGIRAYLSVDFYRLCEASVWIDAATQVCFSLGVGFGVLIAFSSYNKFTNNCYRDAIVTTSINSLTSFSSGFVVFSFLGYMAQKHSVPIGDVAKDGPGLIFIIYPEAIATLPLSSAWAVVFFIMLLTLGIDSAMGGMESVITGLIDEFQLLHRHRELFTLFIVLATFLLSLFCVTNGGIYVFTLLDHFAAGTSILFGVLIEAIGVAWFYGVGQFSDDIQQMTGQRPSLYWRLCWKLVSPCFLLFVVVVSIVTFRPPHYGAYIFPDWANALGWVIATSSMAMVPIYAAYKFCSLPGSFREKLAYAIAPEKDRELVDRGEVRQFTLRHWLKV
Sequence of UniProt P41145 (whole entry, looked up): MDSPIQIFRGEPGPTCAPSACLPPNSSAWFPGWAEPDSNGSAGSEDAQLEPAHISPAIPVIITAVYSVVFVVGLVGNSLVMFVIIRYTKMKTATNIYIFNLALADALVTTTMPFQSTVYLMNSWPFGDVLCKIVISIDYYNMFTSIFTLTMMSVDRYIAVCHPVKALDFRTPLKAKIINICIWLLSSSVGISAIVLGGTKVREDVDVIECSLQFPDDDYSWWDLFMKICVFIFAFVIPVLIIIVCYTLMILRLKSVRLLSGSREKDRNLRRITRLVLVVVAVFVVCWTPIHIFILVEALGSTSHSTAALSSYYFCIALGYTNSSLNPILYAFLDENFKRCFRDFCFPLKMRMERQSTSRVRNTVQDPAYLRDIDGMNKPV
Sequence of UniProt P21918 (whole entry, looked up): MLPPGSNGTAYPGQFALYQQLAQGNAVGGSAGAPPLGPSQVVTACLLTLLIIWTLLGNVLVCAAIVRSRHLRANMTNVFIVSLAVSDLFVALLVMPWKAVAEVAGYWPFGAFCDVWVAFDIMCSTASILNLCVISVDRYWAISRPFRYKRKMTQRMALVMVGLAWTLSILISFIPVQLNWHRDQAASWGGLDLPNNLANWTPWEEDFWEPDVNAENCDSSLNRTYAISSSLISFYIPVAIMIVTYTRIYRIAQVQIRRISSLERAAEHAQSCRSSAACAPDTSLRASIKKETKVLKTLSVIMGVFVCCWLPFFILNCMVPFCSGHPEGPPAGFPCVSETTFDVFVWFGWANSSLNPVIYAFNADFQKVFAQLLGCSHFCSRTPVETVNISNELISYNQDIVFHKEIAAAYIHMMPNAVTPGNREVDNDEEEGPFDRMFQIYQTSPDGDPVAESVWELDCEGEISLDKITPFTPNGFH
Sequence of UniProt P41143 (whole entry, looked up): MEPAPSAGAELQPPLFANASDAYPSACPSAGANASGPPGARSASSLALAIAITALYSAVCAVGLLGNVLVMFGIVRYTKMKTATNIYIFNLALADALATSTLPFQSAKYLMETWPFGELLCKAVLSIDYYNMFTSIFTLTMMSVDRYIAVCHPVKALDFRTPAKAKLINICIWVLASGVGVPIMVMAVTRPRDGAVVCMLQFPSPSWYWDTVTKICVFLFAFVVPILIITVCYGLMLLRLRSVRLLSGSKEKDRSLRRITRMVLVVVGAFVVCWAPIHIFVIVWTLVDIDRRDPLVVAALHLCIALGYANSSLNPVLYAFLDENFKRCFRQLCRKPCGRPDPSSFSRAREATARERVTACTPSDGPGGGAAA

Sample 1 — observed: cell-free assay; concentration: 10 µM
SMILES: COc1ccc2c(c1)O[C@H](c1ccc(OC)c(OC)c1)C[C@@H]2NC(=O)C1(c2ccc3c(c2)OC(F)(F)O3)CC1
| target | inhibition [%] |
| --- | --- |
| CHRM3 (Homo sapiens, UniProt P20309) | 1.13 |
| HTR1A (Homo sapiens, UniProt P08908) | -22.7 |
| SLC6A3 (Homo sapiens, UniProt Q01959) | 6.33 |
| OPRD1 (Homo sapiens, UniProt P41143) | -7.29 |
| DRD5 (Homo sapiens, UniProt P21918) | 20.7 |
| OPRK1 (Homo sapiens, UniProt P41145) | 34.1 |
| SLC6A2 (Homo sapiens, UniProt P23975) | -24.1 |

Sample 2 — observed: enzyme activity; mode: inhibitor; concentration: 77 µM; baseline: untreated
Target: DNA polymerase theta, ATPase domain (POLQ, Homo sapiens, UniProt O75417)
Sequence of UniProt O75417 (whole entry, unmodified, looked up): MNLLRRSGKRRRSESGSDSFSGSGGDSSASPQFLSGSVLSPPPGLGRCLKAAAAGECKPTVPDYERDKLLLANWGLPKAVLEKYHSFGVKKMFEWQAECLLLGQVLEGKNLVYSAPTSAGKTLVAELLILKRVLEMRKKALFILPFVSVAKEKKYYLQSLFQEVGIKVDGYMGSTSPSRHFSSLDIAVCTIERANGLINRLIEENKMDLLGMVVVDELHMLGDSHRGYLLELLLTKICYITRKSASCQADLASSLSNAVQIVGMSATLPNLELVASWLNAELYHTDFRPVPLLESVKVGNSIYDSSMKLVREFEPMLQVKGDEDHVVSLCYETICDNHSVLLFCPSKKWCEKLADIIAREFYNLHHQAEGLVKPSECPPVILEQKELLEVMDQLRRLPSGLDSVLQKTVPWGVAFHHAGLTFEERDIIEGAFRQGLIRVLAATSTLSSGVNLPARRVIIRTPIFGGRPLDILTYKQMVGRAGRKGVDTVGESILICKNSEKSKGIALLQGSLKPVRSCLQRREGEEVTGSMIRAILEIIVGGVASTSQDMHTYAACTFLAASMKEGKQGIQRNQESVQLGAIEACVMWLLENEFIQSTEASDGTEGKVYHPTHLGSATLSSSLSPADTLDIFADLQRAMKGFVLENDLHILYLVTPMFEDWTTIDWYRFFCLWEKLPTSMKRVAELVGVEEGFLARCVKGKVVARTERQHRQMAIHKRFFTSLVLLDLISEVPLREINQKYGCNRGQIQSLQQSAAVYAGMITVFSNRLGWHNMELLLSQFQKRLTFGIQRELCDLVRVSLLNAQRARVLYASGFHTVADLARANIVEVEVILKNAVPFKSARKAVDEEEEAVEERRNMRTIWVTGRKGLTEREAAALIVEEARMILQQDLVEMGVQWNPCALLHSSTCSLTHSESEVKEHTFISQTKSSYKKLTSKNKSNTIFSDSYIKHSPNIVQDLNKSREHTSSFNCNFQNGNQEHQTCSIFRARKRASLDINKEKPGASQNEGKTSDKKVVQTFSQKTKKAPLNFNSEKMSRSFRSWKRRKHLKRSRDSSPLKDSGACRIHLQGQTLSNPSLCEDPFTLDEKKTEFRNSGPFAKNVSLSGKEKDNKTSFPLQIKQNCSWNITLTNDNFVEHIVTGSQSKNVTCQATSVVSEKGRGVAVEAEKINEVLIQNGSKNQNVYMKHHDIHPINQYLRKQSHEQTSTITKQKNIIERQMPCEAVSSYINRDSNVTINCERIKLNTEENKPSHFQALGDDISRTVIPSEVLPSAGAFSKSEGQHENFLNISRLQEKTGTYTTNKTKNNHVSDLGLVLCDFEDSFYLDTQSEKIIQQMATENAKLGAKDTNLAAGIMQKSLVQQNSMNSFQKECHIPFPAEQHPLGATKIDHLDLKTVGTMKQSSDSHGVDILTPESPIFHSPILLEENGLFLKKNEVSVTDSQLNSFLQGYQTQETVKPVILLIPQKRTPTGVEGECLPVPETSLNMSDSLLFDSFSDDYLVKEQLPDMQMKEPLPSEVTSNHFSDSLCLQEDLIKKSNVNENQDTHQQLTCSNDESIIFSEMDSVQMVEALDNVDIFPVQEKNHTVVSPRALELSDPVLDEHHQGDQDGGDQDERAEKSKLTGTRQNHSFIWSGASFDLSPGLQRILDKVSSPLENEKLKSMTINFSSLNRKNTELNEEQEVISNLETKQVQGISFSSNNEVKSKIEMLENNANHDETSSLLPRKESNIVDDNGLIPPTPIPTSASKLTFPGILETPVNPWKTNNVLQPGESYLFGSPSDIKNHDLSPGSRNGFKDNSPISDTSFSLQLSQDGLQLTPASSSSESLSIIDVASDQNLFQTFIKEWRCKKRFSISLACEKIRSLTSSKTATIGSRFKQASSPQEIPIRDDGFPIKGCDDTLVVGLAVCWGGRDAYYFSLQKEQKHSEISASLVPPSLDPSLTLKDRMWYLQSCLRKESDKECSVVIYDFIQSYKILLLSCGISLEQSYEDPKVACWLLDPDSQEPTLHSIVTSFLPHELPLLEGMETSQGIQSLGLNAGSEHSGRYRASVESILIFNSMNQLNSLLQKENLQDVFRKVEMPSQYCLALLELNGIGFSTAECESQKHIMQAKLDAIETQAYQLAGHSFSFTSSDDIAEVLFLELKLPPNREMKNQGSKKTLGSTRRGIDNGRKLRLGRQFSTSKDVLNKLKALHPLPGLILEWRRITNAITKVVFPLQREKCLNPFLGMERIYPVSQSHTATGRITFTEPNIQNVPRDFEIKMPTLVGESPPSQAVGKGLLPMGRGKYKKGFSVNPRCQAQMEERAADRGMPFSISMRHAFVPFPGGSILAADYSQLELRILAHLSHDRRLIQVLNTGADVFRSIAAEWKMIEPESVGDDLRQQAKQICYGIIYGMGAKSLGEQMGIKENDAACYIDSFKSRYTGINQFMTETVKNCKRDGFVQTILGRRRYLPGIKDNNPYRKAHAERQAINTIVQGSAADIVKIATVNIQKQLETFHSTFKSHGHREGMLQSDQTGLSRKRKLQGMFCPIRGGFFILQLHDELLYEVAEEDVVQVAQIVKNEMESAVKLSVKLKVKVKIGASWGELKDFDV
| SMILES | remaining activity [%] |
| --- | --- |
| N=C(NCCC[C@H](N)C(=O)O)N[N+](=O)[O-] | 108 |
| Cc1cc([C@@H]2CCCN2C)on1 | 83.3 |
| N/C(=N\N=C\c1ccc(-c2cccc([N+](=O)[O-])c2)o1)N[N+](=O)[O-] | 106 |

Sample 3 — method: CCK-8
Compound: CC(C)S(=O)(=O)c1cc2c(Nc3ccc4sc(C5CCCC5)nc4c3)ccnc2cc1OCCO
| cell line | conditions | survival |
| --- | --- | --- |
| L929 RIPK3-/- reexpressing RIPK3 K51A | 1.563 µM | 93.6% and 95.9% and 96% and 84.7% and 97.2% |
| L929 RIPK3-/- reexpressing RIPK3 K51A | 12.5 µM, with: zVAD | 66.1% and 66% and 68.9% and 71.7% |
| L929 RIPK3-/- reexpressing RIPK3 K51A/R69H | 1.563 µM | 96.8% and 93.4% and 99.6% and 95.9% |
| L929 RIPK3-/- reexpressing RIPK3 K51A | 3.125 µM, with: zVAD | 85% and 82.4% and 90% and 78.9% |
| L929 RIPK3-/- reexpressing RIPK3 K51A | 1.563 µM, with: zVAD | 89.2% and 96.8% and 84.3% and 94.2% |

Further values, each from its own experiment
| SMILES | target | test | conditions | endpoint | result |
| --- | --- | --- | --- | --- | --- |
| COC[C@H]1OC(=O)c2coc3c2[C@@]1(C)C1=C(C3=O)[C@@H]2CCC(=O)[C@@]2(C)C[C@H]1OC(C)=O | Leukocyte tyrosine kinase receptor (LTK, Homo sapiens, UniProt P29376) | enzyme activity, inhibitor, radiometric | 0.5 µM | activity vs control | 100% |

For quick reference, copied from above (sample 1):
| target | inhibition [%] |
| --- | --- |
| SLC6A2 (Homo sapiens, UniProt P23975) | -24.1 |
| OPRD1 (Homo sapiens, UniProt P41143) | -7.29 |
